Assay results pooled from the literature.
A part holds a random share of what one study measured.

Series 1 — technique: RNAcompete; molecule type: RNA; medium: in vitro; concentration: 20 nM; notes: 7-mer, probes averaged, single round; baseline: mean of 7-mers; reading: higher = stronger binding; endpoint: 7-mer Z-score
Target: PABPC1L2, full length, GST fusion (mouse, UniProt A0ABA7IW68)
Target sequence (chain): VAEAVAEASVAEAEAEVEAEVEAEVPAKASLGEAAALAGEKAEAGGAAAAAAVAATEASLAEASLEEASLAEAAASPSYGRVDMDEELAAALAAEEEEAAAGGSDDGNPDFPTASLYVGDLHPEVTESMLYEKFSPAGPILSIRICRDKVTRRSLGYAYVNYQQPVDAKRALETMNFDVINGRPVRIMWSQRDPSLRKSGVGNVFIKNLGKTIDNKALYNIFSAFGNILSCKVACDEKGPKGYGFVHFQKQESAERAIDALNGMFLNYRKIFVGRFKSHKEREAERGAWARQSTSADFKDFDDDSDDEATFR
AUUUCAA: -0.00289
GAGAGUA: -0.11
CGGGGAC: 0.0642
GCGAAGA: 0.131
AGGUGGC: 0.227
GCGGUUC: -0.121
GAUAUUC: -0.293
ACACACA: 0.2
UAACACC: -0.0935
CGUCGGG: -0.0482
GACUUUG: -0.284
GGGUUGU: -0.217
GUCCAAA: 0.626
CCAAGGG: -0.0228
UGGAAGU: 0.0225
CUAGGAC: 0.066

Series 2 — technique: RNA Bind-n-Seq; molecule type: RNA; medium: in vitro; concentration: 365 nM; baseline: no-protein control; reading: higher = stronger binding; endpoint: RBNS enrichment (R)
Target: RNA binding protein fox-1 homolog 2, RRM domain, GST-SBP tag (RBFOX2, Homo sapiens, UniProt O43251-10, residues 100-194)
Notes: natural RNA segment, single round, ends assumed
All sequences stand within: GGGAGUUCUACAGUCCGACGAUC … UGGAAUUCUCGGGUGCCAA
Construct (chain): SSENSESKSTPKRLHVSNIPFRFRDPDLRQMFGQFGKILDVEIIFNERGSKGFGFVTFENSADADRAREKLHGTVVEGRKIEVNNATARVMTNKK
ACUGCCCACAUCAUACCUUUUCUUAAUGAAGCCCUGGCACUUUAUAGCAGAGUUCAUGAAACCACAGCUCUUCCAAGCCAUGUACAUAGUUCAUGCUCAGCCCUGAACUC: 0.502
UUUCUUUUCUCCAGUCCUCACAAAUACAGAAACAAUAACUGAAAUUAACUUUUCUUUUUUUAAAAAAAAUUAUAUUCAGUUUGCAGUAGACAUUCCUUAAGUAUUUGUAU: 0.777
CUGAAAUGCGUGCUCCCACCAAGGCCAGAGACCCACAGCCCCAAGACAAGAAGUGCCCUUAUAAACCCCUGCAGCCCUGCAGCCCUGAAAUAAAUUUUGCAAUUAGUUUC: 0.585
GAAAGAGAUGGAACUAAACUCUACUAUCAGCUGCUUCAAAAACCUUUUGUCUACGGCCUGGGAAGAUGUUCUCCAGCCCCUGAGCCUAUUGGUUGGAUAGAGAGAGACUG: 0.377
UAUUCCCUGAGAUUACAGAAGUACCCAGAAGUGUCUGGGAUCCCUGUCACAUCUGUGUCAUGUUGUUAUUUGAAGCAUCAGACUUUAUUACUAUGCUAGGUCCUCACUAC: 0.447
CACCUUUCGGCAGAGGAACCCCCACCAGACAUCACCCUUUGCCUUAGCAGGGGUGACUUUGUCUCUCCUGGCUGGGCCAUCCUUCCGCCAAUCUGGCCCUUACACACUCA: 0.494
CUACACUUCUGAAGUAUGAGCAAAGCUUAAGGUGAGUCUUGUGAUAUCUCUUUCACUUCCUCCCCAGCUGCCAAAUGGGGAUAAAUAAUCUUACCUACCUCCUGGGGGGG: 0.334
AUGUGAGCAUUCUCAAACAAGAGACUAACUGAUGCUCCUGCUGUUAAAAAGGCAGAACUAGGGAGGUGACUUUAGGCCUCCUGCUGUGGCCUCUGAAGAAGGUGACUCUU: 0.319

Series 3 — technique: RNA Bind-n-Seq; molecule type: RNA; medium: in vitro; concentration: 100 nM; notes: RNA with constant flanks, ends assumed; baseline: input RNA pool; reading: higher = stronger binding; endpoint: bound/input enrichment
Target: RING finger protein unkempt homolog, zinc fingers 1-6, SBP tag (UNK, Homo sapiens, UniProt Q9C0B0, residues 30-357)
Chain of UniProt Q9C0B0 (30-357, looked up): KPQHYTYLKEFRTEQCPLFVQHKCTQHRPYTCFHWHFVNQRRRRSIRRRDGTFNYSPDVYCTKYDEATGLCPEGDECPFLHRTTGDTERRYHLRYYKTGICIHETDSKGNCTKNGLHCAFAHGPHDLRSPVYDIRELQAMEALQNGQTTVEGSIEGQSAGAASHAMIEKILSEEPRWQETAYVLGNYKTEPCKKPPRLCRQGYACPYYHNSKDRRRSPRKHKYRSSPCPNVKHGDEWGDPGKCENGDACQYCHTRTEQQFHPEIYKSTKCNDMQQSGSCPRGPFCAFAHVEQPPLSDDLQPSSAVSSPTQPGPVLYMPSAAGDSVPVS
GGGAGUUCUACAGUCCGACGAUCGCUCCCGUUCUUAACAACCGACACUCCUACAAGAUUCCGAAAAAAGUUUACAACAUAAUCCCGUUUACAGAAAAAUCUUGUGCCCGAAUACUUUUUAAAAGGUAUUUUGAAUACCAUUAACAACAGAGGAUUGAGCAUCA: 0.459 ratio
GGGAGUUCUACAGUCCGACGAUCACAUGCCACUGUCACCAAAACAAACAACUACCACUUUCCAAAUUUCAUUCAGAACCAUUUCCGUGUUUUCCUAUUCCCUACCCCUCCCACUACUUUCAAUGAUGAAAUACCCUAAGUUAACAACAGAGGAUUGAGCAUCA: 3.79 ratio
GGGAGUUCUACAGUCCGACGAUCUUCAGGCACAACUGACUGGUUCACAGCACUCCUUACACCGUUAUCUAUCAAAUUCAAGUGCCGUUAAUUUUCAGGAAACAACCAGGCAGUCAUCUUUAUCCUGCCGCCCAAUUGGAGAUUCAACAGAGGAUUGAGCAUCA: 0.712 ratio

Series 4 — technique: RNA Bind-n-Seq; molecule type: RNA; medium: in vitro; concentration: 200 nM; notes: whole 134-nt RNA, ends assumed; with: 150 mM KCl; baseline: input library; reading: higher = stronger binding; endpoint: log2 enrichment
Target: Ras GTPase-activating protein-binding protein 1, full length (G3BP1, Homo sapiens, UniProt Q13283)
Chain of UniProt Q13283 (whole entry, looked up): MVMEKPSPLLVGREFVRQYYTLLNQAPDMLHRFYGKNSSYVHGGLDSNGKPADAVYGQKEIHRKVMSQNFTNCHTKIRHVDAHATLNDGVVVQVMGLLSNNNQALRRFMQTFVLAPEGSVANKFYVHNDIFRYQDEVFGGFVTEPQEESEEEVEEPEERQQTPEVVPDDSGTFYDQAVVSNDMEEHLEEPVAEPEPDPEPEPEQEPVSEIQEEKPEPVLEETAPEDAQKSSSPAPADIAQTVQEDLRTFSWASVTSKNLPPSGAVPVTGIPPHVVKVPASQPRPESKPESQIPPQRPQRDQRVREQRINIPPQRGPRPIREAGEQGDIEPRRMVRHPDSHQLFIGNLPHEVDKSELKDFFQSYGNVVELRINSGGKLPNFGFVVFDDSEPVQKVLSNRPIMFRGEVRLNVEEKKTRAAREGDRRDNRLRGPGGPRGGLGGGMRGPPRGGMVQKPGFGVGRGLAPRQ
All sequences stand within: GGGAGUUCUACAGUCCGACGAUC … UGGAAUUCUCGGGUGUCAAGG
CAAGUCCUGUGCUACACAUCGUAUGUACCGAAUCGGUUUUGGUUUUGGUUUUGGGGAAAGUAUUAUGUUACGCCGUUCGGAUCUGCACUU: -0.971
UAACUUUAGAGGAGGAUCUGAUGGAUAUGGCAGUUGACGUGGAUUUGGGGAUGGCUAUAAUGGGUAUGGAGGAGGACCUGGAGGUGGCAA: 0.259
ACCAUGCAGGUGGGCAUCUUCGGGAAGUGGGGCAAGGGGGGGAUAGGGAGGGGGGUAACACUUUGGGAACAGGUGGUCCCAGGUCGUUUC: 1.1
AAGUCCUGUGCUACACAUCGUAUGUACCGAAUCGGUUUUGGGUUUUGGGGUUUUGGAAAGUAUUAUGUUACGCCGUUCGGAUCUGCACUU: -0.961
GGCUGCUGGAGUGCCGUGAGCAGGCCGCGGGAACGUCGCCGUCACCUUGUCUCGGGGCCUCGGCGCUGCUUCCCGCCAAAACACGUUUAC: -1.24
UCCUGUGCUACACAUCGUAUGUACCGAAUCGGGCCCCCCGGGCCCCCCGGCCCCCCGGGGAAAGUAUUAUGUUACGCCGUUCGGAUCUGC: -0.228
AAGUCCUGUGCUACACAUCGUAUGUACCGAAUCGGGGUGGGGUGGGGUUUUUGGGGAAAGUAUUAUGUUACGCCGUUCGGAUCUGCACUU: 0.586
UGGGAGGUGGAUCUUGUUUAUUUUUUUAGCUCAUUUCCAGGGGUGGGAAUUUUUUUUUAAUAUGUGUCAUGAAUAAAGUUGUUUUUGAAA: -0.0934
AGUCCUGUGCUACACAUCGUAUGUACCGAAUCGGGGUGGGGAGGGGUUUUUUUGGGGAAAGUAUUAUGUUACGCCGUUCGGAUCUGCACU: 0.669

Some of these lines once more (series 4):
UCCUGUGCUACACAUCGUAUGUACCGAAUCGGGCCCCCCGGGCCCCCCGGCCCCCCGGGGAAAGUAUUAUGUUACGCCGUUCGGAUCUGC: -0.228
ACCAUGCAGGUGGGCAUCUUCGGGAAGUGGGGCAAGGGGGGGAUAGGGAGGGGGGUAACACUUUGGGAACAGGUGGUCCCAGGUCGUUUC: 1.1
UAACUUUAGAGGAGGAUCUGAUGGAUAUGGCAGUUGACGUGGAUUUGGGGAUGGCUAUAAUGGGUAUGGAGGAGGACCUGGAGGUGGCAA: 0.259
AGUCCUGUGCUACACAUCGUAUGUACCGAAUCGGGGUGGGGAGGGGUUUUUUUGGGGAAAGUAUUAUGUUACGCCGUUCGGAUCUGCACU: 0.669
